Measured values pooled from the literature.
Every numbered part comes from another study and shows a few of its results, in no order.
UniProt Q9Y6M4, sequence (whole entry, looked up): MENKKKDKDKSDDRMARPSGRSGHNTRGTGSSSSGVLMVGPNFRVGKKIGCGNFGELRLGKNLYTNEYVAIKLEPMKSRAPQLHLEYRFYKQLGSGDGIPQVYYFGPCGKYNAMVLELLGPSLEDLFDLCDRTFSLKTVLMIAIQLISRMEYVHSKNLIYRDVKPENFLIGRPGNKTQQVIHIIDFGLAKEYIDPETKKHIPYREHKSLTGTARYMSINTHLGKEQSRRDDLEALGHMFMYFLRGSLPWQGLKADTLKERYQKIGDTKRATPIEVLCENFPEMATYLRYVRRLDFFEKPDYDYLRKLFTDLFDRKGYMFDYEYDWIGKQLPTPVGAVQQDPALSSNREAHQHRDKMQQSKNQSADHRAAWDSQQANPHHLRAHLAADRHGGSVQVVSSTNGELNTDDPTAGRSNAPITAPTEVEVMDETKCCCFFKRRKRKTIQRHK
UniProt P52333, sequence (whole entry, looked up): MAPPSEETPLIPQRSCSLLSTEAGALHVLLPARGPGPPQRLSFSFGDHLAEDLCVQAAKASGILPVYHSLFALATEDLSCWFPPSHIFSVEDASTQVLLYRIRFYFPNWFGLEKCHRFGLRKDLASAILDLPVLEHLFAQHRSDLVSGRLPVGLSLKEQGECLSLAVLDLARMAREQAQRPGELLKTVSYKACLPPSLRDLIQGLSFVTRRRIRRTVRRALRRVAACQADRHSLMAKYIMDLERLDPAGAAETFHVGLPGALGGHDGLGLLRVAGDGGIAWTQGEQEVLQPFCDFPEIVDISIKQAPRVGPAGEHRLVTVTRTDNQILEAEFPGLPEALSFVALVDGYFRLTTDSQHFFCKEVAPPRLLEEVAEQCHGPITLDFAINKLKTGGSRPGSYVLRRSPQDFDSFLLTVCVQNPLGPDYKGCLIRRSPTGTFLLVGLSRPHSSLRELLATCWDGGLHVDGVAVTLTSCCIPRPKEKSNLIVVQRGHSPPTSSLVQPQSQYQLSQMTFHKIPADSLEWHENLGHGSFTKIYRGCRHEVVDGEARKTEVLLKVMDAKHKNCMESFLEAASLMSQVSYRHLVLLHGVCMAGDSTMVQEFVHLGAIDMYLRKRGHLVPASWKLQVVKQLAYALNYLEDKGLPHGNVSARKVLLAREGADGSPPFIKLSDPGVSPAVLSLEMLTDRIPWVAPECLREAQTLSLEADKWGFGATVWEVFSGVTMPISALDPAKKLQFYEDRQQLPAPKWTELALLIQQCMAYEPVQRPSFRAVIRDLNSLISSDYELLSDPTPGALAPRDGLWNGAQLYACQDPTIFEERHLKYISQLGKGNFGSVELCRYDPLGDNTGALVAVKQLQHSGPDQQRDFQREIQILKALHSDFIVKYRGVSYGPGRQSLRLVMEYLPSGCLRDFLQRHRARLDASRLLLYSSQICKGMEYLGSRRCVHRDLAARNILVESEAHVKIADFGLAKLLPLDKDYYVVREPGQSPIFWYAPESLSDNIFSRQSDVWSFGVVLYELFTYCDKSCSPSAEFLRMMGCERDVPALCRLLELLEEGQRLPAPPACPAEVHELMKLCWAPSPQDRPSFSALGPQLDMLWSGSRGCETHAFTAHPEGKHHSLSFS
UniProt Q15349, sequence (whole entry, looked up): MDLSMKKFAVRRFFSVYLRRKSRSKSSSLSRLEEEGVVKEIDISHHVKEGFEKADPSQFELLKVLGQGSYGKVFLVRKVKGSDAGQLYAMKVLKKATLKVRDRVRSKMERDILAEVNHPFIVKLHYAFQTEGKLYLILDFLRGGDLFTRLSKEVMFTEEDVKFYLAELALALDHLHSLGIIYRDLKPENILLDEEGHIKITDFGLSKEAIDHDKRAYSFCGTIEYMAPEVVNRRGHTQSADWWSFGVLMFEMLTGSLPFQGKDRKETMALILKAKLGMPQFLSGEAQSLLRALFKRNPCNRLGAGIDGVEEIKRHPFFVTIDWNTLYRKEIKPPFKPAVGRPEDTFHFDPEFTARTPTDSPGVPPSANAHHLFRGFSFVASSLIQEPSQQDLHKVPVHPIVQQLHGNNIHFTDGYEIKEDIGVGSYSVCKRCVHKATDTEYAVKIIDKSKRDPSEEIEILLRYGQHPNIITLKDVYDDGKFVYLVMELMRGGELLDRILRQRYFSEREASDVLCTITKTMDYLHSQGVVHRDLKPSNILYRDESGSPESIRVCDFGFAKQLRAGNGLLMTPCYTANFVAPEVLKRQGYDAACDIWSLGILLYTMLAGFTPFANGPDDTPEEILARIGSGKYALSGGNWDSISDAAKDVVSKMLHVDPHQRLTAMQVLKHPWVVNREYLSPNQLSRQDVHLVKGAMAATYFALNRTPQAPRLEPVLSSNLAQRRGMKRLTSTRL
UniProt Q9UHD2, sequence (whole entry, looked up): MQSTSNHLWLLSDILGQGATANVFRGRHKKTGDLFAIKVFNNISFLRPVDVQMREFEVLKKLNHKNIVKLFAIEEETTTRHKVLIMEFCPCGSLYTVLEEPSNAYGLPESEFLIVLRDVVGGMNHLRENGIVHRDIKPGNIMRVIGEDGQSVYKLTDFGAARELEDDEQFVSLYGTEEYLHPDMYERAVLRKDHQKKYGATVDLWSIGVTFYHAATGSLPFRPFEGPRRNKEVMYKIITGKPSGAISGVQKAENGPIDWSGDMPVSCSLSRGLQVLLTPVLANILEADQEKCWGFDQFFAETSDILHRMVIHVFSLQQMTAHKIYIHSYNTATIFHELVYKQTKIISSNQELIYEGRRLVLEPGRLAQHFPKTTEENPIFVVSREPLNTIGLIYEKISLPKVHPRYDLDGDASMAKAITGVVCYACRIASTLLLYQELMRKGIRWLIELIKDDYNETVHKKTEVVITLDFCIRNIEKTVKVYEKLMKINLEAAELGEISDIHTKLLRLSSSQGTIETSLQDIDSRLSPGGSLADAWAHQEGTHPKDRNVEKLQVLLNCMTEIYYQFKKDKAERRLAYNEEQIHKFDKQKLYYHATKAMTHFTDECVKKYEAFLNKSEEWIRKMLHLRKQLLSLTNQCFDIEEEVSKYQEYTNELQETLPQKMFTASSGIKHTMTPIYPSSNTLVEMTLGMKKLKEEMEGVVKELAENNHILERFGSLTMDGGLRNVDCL
UniProt Q92772, sequence (whole entry, looked up): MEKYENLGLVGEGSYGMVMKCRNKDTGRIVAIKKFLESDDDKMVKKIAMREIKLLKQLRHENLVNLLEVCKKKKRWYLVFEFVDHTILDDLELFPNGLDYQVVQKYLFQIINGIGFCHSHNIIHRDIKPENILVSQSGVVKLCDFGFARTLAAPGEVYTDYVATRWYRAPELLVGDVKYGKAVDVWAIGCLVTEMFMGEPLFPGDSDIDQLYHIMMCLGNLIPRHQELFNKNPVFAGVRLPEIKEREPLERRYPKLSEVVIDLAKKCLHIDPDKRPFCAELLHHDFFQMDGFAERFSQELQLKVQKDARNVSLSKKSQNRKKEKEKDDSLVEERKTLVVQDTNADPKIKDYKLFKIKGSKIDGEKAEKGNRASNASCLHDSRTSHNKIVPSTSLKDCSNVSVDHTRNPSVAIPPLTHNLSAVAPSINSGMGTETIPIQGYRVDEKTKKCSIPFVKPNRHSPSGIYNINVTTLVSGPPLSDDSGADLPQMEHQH
UniProt P07948, sequence (whole entry, looked up): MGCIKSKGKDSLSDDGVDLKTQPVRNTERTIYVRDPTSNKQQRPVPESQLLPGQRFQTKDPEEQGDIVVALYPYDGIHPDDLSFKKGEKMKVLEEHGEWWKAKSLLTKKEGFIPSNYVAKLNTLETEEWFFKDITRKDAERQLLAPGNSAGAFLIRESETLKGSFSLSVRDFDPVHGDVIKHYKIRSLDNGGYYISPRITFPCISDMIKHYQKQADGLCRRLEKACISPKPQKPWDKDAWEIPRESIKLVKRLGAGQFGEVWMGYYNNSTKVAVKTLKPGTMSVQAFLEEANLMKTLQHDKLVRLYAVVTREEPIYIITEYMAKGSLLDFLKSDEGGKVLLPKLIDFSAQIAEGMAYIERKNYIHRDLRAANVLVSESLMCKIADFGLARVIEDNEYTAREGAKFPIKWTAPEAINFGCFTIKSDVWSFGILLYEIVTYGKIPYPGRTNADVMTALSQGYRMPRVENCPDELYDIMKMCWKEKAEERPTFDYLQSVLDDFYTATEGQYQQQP
UniProt P06239, sequence (whole entry, looked up): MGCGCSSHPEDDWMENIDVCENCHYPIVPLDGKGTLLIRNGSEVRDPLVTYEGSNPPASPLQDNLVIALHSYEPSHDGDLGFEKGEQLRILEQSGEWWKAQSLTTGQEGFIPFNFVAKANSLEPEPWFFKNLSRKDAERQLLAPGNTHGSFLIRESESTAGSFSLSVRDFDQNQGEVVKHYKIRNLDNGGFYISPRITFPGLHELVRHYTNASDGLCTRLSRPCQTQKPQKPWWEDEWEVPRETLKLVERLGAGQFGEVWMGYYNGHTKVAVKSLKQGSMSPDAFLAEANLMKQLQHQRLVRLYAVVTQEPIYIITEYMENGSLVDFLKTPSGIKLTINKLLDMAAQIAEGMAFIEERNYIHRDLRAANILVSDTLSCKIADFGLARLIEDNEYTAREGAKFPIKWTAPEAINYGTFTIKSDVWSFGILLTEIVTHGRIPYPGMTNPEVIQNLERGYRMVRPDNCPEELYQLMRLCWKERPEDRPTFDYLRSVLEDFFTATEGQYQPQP
UniProt P49137, sequence (whole entry, looked up): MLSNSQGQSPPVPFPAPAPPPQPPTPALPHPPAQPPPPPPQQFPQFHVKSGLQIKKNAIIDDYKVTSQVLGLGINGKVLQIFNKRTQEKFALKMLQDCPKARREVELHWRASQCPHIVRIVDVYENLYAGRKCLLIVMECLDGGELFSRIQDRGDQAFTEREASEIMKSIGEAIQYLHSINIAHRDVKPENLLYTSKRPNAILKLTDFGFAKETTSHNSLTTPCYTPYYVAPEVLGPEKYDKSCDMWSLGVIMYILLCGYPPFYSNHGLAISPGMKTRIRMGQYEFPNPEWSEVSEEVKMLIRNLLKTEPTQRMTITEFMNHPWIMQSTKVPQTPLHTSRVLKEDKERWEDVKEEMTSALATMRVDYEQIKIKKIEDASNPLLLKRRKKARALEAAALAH

Block 1
Target: Interferon regulatory factor 5, full length, phosphomimetic (IRF5, Homo sapiens, UniProt Q13568-2, residues 1-514, S451D/S453D/S456D/S462D)
Technique: protein-binding microarray
Form: double-stranded DNA, one strand shown
Sample: in vitro
Concentration: 940 nM top
Notes: 60-bp whole probe
Together with: salmon DNA 0.4 mg/ml
Relative to: random background probes
Direction: higher = stronger binding
Quantity: fitted relative affinity
Shared flanks, not repeated: GCCTAGCAC … GTCTTGATTCGCTTGACGCTGCTG
TTAGATATCAGTTTCAATTAGTGCTAG: 2.83 z-score
GACGGTCTCCCTCTCCTGACGTGCTAG: 0.527 z-score
GTCGGACTGGGTATCGGGACGTGCTAG: 1.24 z-score
TTAGGTTTCGGGTTTCGGATAGTGCTA: 10.6 z-score
TTAGGTATTCTTATCCTTTAGTGCTAG: 0.226 z-score
CTCTCTTCACATATAATTTTGTGCTAG: 1.31 z-score
TCAATTTTCCAAATGCCACTGTGCTAG: 0.232 z-score
CTTAGTATTTTTTTCCAGAGGTGCTAG: 1.17 z-score

Block 2
Cell line: HaCaT
Concentration: 100 µM
Time: 18 h
Quantity: viability
CCC(=O)O[C@]1(C(=O)CCl)[C@@H](C)C[C@H]2[C@@H]3CCC4=CC(=O)C=C[C@]4(C)[C@@]3(F)[C@@H](O)C[C@@]21C: 72.4%
COc1cc2nc(N3CCN(C(=O)C4CCCO4)CC3)nc(N)c2cc1OC (centres unmarked): 71.4%
CCN(CC)CCNC(=O)c1cc(Cl)c(N)cc1OC: 94.8%
NS(=O)(=O)c1cc(C2(O)NC(=O)c3ccccc32)ccc1Cl (centres unmarked): 81.2%

Block 3
SMILES: CCCC(=O)Oc1ccc2[nH]c(C(=O)c3cc4ccccc4[nH]3)cc2c1
Read-out: enzyme activity
Mode: inhibitor
Concentration: 0.5 µM
Relative to: control
Quantity: remaining activity
NEK6 (Homo sapiens, UniProt Q9HC98): 101%
GRK7 (Homo sapiens, UniProt Q8WTQ7): 105%
CSNK1G3 (Homo sapiens, UniProt Q9Y6M4): 82.7%
TBK1 (Homo sapiens, UniProt Q9UHD2): 119%
FRK (Homo sapiens, UniProt P42685): 98.2%
ACVR1B (Homo sapiens, UniProt P36896): 98.9%
MAPKAPK2 (Homo sapiens, UniProt P49137): 92.4%
MAPK3 (Homo sapiens, UniProt P27361): 87.9%
TAOK2 (Homo sapiens, UniProt Q9UL54): 110%
RPS6KA2 (Homo sapiens, UniProt Q15349): 85%
LCK (Homo sapiens, UniProt P06239): 94%
MAP2K2 (Homo sapiens, UniProt P36507): 98.7%
JAK3 (Homo sapiens, UniProt P52333): 95.6%
ABL2 (Homo sapiens, UniProt P42684): 96.3%

Block 4
SMILES: C[C@H](c1ccc(F)cc1)N(Cc1cccc(C(=O)O)c1)C(=O)c1cnc2ccccc2c1
Technique: competition with immobilised ligand
Concentration: 1 µM
Quantity: remaining binding
LYN (Homo sapiens, UniProt P07948); cell-free assay: 100%
CDKL2 (Homo sapiens, UniProt Q92772); binding: 100%
RET (Homo sapiens, UniProt P07949, M918T); cell-free assay: 86%
